Measured values pooled from the literature.
Compare with care: the assays were run in different laboratories. ± marks the error that the study gave.
HDAC6 ZnF-UBD domain: Protein deacetylase HDAC6, ZnF-UBD domain (HDAC6, Homo sapiens, UniProt Q9UBN7)
Sequence of UniProt Q9UBN7 (whole entry, looked up): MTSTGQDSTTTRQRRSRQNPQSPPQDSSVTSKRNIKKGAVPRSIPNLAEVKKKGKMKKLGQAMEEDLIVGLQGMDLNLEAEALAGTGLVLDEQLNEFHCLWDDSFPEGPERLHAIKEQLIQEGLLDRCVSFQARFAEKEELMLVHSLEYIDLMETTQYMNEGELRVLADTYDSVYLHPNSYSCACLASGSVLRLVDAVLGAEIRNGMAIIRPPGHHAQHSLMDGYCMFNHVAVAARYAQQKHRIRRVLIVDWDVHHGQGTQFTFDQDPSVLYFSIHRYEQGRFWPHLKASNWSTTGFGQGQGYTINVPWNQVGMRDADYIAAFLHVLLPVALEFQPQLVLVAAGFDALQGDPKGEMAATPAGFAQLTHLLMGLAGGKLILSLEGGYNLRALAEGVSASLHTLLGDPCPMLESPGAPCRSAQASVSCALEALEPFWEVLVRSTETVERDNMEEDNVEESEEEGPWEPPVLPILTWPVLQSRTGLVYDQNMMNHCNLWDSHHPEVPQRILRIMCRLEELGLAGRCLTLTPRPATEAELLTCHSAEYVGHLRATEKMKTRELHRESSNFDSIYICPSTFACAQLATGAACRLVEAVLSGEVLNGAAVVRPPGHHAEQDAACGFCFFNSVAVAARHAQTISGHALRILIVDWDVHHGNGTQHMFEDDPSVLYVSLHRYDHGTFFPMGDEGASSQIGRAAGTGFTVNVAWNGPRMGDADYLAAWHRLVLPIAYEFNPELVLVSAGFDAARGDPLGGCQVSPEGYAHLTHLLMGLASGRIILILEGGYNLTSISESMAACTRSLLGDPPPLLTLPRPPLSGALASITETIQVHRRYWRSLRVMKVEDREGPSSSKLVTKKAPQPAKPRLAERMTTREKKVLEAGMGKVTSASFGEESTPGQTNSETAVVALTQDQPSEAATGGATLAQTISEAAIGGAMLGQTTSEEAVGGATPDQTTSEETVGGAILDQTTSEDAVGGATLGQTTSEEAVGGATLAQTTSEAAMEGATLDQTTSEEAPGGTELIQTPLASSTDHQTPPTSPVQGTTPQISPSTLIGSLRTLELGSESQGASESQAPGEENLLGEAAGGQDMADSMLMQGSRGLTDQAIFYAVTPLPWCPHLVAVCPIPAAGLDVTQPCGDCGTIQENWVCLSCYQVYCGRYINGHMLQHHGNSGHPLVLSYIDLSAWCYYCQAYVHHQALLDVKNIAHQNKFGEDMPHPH
AHR: Aryl hydrocarbon receptor (AHR, Homo sapiens, UniProt P35869)
Sequence of UniProt P35869 (whole entry, looked up): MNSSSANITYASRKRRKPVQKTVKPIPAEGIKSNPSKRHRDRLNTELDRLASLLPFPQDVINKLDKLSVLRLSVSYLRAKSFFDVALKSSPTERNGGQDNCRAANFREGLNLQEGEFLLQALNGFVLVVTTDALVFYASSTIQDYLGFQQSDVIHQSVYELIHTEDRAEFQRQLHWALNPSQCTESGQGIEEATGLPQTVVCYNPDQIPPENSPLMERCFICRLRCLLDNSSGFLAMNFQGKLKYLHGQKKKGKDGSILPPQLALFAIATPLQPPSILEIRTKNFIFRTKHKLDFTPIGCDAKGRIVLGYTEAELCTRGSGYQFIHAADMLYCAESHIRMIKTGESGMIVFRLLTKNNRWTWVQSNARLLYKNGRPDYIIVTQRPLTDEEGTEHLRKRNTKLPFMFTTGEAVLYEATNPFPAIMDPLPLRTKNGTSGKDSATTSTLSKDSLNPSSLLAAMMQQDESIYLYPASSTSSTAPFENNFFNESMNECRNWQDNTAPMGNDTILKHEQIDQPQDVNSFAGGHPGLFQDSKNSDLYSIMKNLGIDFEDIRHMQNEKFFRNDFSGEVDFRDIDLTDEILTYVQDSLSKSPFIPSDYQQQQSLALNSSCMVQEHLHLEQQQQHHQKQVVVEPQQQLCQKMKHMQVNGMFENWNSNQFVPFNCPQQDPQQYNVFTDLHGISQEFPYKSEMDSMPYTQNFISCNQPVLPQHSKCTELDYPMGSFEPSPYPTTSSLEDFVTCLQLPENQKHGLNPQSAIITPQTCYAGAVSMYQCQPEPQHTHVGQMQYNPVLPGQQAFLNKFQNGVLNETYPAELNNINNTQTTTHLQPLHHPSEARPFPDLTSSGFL
Sequence of UniProt Q00961 (whole entry, unmodified, looked up): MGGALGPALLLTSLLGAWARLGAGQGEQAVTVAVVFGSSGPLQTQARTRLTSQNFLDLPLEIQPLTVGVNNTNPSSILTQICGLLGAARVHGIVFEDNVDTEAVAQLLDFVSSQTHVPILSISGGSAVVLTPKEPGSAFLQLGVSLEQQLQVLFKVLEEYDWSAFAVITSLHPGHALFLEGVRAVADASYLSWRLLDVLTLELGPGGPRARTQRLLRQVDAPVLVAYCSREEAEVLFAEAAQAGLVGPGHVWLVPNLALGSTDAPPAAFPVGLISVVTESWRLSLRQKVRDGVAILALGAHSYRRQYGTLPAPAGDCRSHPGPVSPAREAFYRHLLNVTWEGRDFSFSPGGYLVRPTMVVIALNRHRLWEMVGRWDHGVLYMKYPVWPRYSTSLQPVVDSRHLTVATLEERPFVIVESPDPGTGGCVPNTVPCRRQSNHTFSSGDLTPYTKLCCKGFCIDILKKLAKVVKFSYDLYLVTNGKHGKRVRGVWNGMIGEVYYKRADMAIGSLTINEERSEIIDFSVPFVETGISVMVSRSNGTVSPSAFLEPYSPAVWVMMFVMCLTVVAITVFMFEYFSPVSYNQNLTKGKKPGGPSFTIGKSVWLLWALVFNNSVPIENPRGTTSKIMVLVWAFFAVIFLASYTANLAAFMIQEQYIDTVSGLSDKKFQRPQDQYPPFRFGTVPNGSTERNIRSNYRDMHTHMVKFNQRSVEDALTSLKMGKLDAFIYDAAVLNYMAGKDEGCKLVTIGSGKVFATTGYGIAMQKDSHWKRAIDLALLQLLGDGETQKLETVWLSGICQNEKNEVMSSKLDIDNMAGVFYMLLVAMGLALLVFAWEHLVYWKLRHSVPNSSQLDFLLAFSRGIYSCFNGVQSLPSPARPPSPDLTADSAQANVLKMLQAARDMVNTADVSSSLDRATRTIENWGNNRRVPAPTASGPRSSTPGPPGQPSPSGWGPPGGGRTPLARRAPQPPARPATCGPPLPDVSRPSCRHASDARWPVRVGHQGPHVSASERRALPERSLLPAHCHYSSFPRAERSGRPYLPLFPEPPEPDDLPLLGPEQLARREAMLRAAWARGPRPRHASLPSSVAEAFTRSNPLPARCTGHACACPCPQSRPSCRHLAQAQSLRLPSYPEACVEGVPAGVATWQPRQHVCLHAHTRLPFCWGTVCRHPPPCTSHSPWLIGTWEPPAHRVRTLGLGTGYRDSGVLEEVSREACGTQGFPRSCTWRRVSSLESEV
Sequence of UniProt P62813 (whole entry, looked up): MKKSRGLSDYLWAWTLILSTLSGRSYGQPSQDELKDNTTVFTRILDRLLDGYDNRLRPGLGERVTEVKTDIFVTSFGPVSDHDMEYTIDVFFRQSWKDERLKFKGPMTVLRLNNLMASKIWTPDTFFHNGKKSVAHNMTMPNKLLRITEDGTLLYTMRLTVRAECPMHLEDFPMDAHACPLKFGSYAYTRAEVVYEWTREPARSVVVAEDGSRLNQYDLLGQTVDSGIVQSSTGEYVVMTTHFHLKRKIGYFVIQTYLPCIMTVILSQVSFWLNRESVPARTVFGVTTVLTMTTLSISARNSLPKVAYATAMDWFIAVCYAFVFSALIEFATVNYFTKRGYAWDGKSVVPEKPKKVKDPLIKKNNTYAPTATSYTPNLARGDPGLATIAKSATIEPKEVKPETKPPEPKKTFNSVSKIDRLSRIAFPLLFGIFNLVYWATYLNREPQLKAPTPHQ
Sequence of UniProt Q9Y653 (whole entry, unmodified, looked up): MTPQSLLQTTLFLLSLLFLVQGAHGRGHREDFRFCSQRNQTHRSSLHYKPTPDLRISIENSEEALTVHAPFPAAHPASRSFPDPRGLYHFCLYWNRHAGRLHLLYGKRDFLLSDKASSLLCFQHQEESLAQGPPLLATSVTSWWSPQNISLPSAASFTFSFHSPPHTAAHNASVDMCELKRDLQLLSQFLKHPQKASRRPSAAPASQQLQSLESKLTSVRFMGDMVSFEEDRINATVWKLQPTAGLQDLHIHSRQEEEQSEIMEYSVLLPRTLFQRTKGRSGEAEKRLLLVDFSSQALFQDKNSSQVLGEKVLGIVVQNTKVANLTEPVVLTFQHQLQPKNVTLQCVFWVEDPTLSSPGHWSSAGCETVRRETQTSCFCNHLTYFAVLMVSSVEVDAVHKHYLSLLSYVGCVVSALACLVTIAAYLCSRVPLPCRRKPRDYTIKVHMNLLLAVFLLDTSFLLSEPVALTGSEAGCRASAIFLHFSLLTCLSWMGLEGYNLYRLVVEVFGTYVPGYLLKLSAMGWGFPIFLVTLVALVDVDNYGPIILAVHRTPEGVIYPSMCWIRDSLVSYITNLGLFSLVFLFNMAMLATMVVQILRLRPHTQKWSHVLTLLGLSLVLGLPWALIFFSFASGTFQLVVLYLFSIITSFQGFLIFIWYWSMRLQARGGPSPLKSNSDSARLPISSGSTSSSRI
Sequence of UniProt P34995 (whole entry, unmodified, looked up): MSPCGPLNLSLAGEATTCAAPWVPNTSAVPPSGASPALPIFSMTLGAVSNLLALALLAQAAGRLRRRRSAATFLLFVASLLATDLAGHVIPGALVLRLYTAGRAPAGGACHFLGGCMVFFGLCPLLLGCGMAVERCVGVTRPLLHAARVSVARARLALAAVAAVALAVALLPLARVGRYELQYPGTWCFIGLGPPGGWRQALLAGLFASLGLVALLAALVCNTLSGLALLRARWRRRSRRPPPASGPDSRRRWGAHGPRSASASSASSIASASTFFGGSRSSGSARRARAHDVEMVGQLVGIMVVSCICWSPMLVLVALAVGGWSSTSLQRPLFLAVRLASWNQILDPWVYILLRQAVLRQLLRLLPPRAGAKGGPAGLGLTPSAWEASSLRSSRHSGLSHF

COc1ccc(C=C2SC(=O)N(C(C)C(=O)O)C2=O)cc1 (centres unmarked) — Kd (HDAC6 ZnF-UBD domain): > 1000 µM
N[C@H](CNC(=O)c1ccc(-c2ccccc2Br)s1)C(=O)O — EC50 (Glutamate NMDA receptor; Grin1/Grin2c (Rattus norvegicus, UniProt P35439+Q00961, V689I); receptor activation, positive modulator; rat; with: glutamate 300 µM): 13 nM
CC(C)C[C@H](NC(=O)[C@H](Cc1ccccc1)NC(=O)[C@H](Cc1ccc(O)cc1)NC(=O)CNC(=O)[C@H](CCCNC(=N)N)NC(=O)[C@H](CO)NC(=O)[C@H](CCC(N)=O)NC(=O)[C@H](CO)NC(=O)[C@H](C)NC(=O)[C@H](Cc1ccccc1)NC(=O)[C@@H]1CCCN1C(=O)[C@H](CO)NC(=O)[C@H](CCC(N)=O)NC(=O)[C@H](Cc1ccccc1)NC(=O)[C@H](CCC(=O)O)NC(=O)[C@H](CCC(=O)O)NC(=O)[C@H](CC(=O)O)NC(=O)[C@@H](NC(=O)[C@H](CCCNC(=N)N)NC(=O)[C@@H](N)Cc1ccccc1)C(C)C)C(=O)N[C@@H](Cc1ccccc1)C(=O)N[C@@H](CCCNC(=N)N)C(=O)N1CCC[C@H]1C(=O)N[C@@H](CCCNC(=N)N)C(=O)N[C@@H](CC(N)=O)C(N)=O — EC50 (NMUR1 (Homo sapiens, UniProt Q9HB89); beta-arrestin recruitment, agonist): 0.0871 nM
c1ccc2c(c1)ccc1ccccc12 — EC50 (AHR; reporter gene, agonist, yeast LacZ reporter; Saccharomyces cerevisiae; 18 h): 43900 nM
O=C(O)CCc1nc2ccccc2c2nc(Cc3ccccc3)nn12 — Kd (HDAC6 ZnF-UBD domain): 187 µM
CC(C)C[C@H](NC(=O)[C@H](Cc1ccccc1)NC(=O)[C@@H](N)Cc1ccc(O)cc1)C(=O)N[C@@H](Cc1ccccc1)C(=O)N[C@@H](CCCNC(=N)N)C(=O)N1CCC[C@H]1C(=O)N[C@@H](CCCNC(=N)N)C(=O)N[C@@H](CC(N)=O)C(N)=O — EC50 (Neuromedin-U receptor 2 (Mus musculus, UniProt Q8BZ39); Gq signalling, agonist, IP-1 accumulation; average of runs): 68 nM
CCn1c(-c2nc3ccc(C(=O)N4CCCC(N)C4)cc3n2C)cc2ccccc21 (centres unmarked) — EC50 (AHR; agonist, FRET): > 100000 nM
CCCCC[C@H](O)/C=C/[C@H]1[C@H](O)CC(=O)[C@@H]1C/C=C\CCCC(=O)O — EC50 (PTGER1 (Homo sapiens, UniProt P34995, R63A); IP1 accumulation, agonist; AD293; EP1 R63A mutant): 2.72 nM
CCCCNc1c(C(=O)OCC)c(C)nc2c1cnn2CC — EC50 (GABA-A receptor; alpha-1/beta-2/gamma-2 (Rattus norvegicus, UniProt P18508+P62813+P63138); membrane potential, agonist, QP-DHM fluorescence; HEK293 expressing GABAA): 9900 nM
CC(=O)c1cc([N+](=O)[O-])c(Sc2cccc(Cl)c2Cl)s1 — EC50 (USP7 (Homo sapiens, UniProt Q93009); enzyme activity, inhibitor): 4200 nM
CC1=C(C(=O)OC(C)C)C(c2ccccc2Br)C2=C(CC(C)(C)CC2=O)N1 (centres unmarked) — EC50 (ADGRG1 (Homo sapiens, UniProt Q9Y653); G13 activation, agonist, GTPγS binding, reconstitution): 2950 ± 410 nM
Cn1cc(-c2ccc(-c3cncc(Cl)c3N3CCC4(CCNC4=O)CC3)cc2)cn1 — log2 fold change (COLO 205; gene expression, microarray, measured: PDE3A mRNA; concentration not given, 2 h; baseline: untreated cells): 1.04
N[C@H](CNC(=O)c1cc(Br)c(-c2ccccc2F)s1)C(=O)O — EC50 (Glutamate NMDA receptor; Grin1/Grin2c (Rattus norvegicus, UniProt P35439+Q00961, S688A); receptor activation, positive modulator; rat; with: glutamate 300 µM): 4 nM
CCOC(=O)c1cccc(NC(=O)c2sccc2S(=O)(=O)N(C)c2cccc(OCC)c2)c1 — EC50 (NR1H3 (Homo sapiens, UniProt Q13133)): > 25000 nM
